{"data": "Measured values of several laboratories", "note": "A part holds a random share of what one study measured."}
{"data": "Series 1", "target": "Sal-like protein 4, full length isoform B (SALL4, Homo sapiens, UniProt Q9UJQ4-2, residues 1-616)", "method": "universal PBM", "molecule type": "double-stranded DNA, one strand shown", "sample": "in vitro", "concentration": "not given", "notes": "8-mer, flanks averaged, mean of replicates", "reading": "higher = stronger binding", "Target sequence (chain)": "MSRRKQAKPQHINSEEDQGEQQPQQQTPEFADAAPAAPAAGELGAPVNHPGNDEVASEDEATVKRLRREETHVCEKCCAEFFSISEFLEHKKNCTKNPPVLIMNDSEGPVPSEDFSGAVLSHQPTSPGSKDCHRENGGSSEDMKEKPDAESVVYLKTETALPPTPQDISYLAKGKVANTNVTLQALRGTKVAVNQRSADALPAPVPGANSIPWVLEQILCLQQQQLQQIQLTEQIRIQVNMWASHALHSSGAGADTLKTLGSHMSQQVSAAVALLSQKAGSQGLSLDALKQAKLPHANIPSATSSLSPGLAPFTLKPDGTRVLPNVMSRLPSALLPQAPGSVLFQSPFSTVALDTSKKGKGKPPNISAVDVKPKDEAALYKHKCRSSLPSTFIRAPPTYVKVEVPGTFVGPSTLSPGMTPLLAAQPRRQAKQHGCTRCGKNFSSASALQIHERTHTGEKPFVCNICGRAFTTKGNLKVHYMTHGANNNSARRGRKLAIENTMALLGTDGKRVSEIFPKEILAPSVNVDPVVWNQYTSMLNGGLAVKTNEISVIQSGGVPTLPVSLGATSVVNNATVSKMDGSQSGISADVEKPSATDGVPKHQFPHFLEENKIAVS"}
{"Strand": "TGGCAGAA", "E-score": -0.137}
{"Strand": "CCCGTCTA", "E-score": -0.0992}
{"Strand": "ATCGTGCA", "E-score": -0.00971}
{"Strand": "CCGCGAGG", "E-score": -0.281}
{"Strand": "CTTAGTCA", "E-score": -0.0386}
{"Strand": "CACCATCG", "E-score": -0.29}
{"Strand": "CCGCGTTC", "E-score": -0.214}
{"Strand": "CGGGGTAC", "E-score": -0.348}
{"Strand": "AATACCAT", "E-score": 0.248}
{"Strand": "AATACGTC", "E-score": 0.119}
{"Strand": "CAAGGAGC", "E-score": 0.00206}
{"Strand": "CCCTGTCG", "E-score": -0.314}
{"Strand": "ACTGGCGG", "E-score": -0.147}
{"Strand": "GTCGTCGA", "E-score": -0.135}
{"Strand": "AGACGGAT", "E-score": -0.035}
{"Strand": "CGAACGAG", "E-score": -0.0879}
{"Strand": "AGTTCTGG", "E-score": -0.184}
{"data": "Series 2", "target": "Histone acetyltransferase KAT6A, winged helix 1, GST fusion (KAT6A, Homo sapiens, UniProt Q92794, residues 1-85)", "method": "protein binding microarray", "molecule type": "double-stranded DNA, one strand shown", "sample": "in vitro", "concentration": "not given", "notes": "8-mer, flanks averaged, mean of 2 arrays, mostly near background", "relative to": "not given", "reading": "higher = stronger binding", "Construct (chain)": "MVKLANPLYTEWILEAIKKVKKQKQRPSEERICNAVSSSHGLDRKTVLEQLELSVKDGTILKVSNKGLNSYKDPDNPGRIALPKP"}
{"Strand": "CTGACGGA", "E-score": 0.12}
{"Strand": "CCCCGTAA", "E-score": 0.216}
{"Strand": "ATCTTGCA", "E-score": -0.0563}
{"Strand": "GGCGCTGA", "E-score": 0.282}
{"Strand": "GCATGAAA", "E-score": -0.222}
{"Strand": "GATAACGC", "E-score": 0.247}
{"Strand": "ACTCGTGA", "E-score": -0.269}
{"Strand": "CTCCAGAC", "E-score": -0.141}
{"Strand": "CACGCACG", "E-score": 0.28}
{"Strand": "TCCGGAGA", "E-score": 0.126}
{"Strand": "CGCCGATA", "E-score": 0.379}
{"Strand": "TAGGCTGA", "E-score": -0.095}
{"Strand": "AACTTAGC", "E-score": -0.104}
{"Strand": "GGTGTACA", "E-score": 0.0042}
{"Strand": "AGCTACAA", "E-score": -0.113}
{"Strand": "CGCACACA", "E-score": 0.183}
{"Strand": "ACAGAGGA", "E-score": -0.198}
{"Strand": "CATGGAAC", "E-score": -0.122}
{"Strand": "CCCTATAG", "E-score": -0.0426}
{"Strand": "AAGGGCAA", "E-score": -0.0751}
{"Strand": "CATAGGTA", "E-score": -0.155}
{"Strand": "CACCTCGG", "E-score": 0.0953}
{"Strand": "CCTGTGAC", "E-score": -0.23}
{"Strand": "ATAACCCA", "E-score": -0.189}
{"Strand": "AGATCACG", "E-score": 0.0765}
{"data": "Series 3", "target": "Fragile X messenger ribonucleoprotein 1, C-terminal low-complexity region (Fmr1, Mus musculus, UniProt P35922)", "method": "RNA Bind-n-Seq", "molecule type": "RNA", "sample": "in vitro", "concentration": "200 nM", "notes": "whole 134-nt RNA, ends assumed", "together with": "150 mM KCl", "relative to": "input library", "reading": "higher = stronger binding"}
{"Strand": "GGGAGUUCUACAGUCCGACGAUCGCAGGAAGUAAAAACAAAUGGAAUUGCUUCGGAUAGUGGCAGGGGUGGGGGUUGCUAAGGAAAGGGUGGGAUGGGAGUGGGUAAAGAGUUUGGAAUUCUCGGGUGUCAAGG", "log2 enrichment": -0.0543}
{"Strand": "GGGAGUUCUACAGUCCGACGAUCCACAGACAACACGCACCCACACAGACACAGAGGGAAGGGGUUGGGAUUGGGACAGGGUGCACAGCAGGGCGGGGUAGGACCCCAGCCCCUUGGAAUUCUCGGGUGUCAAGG", "log2 enrichment": 1.32}
{"Strand": "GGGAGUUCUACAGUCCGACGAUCUGUGCUACACAUCGUAUGUACCGAAUCGGGGUUUUUGGGGAAAAAAAGGGGUUUUUUUGGGGAAAGUAUUAUGUUACGCCGUUCGGAUCUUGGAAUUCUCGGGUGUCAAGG", "log2 enrichment": 0.424}
{"Strand": "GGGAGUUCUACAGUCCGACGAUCCCUGUGCUACACAUCGUAUGUACCGAAUCGGGAAAAAAGGGGAAAAAAGGGAAAAAAGGGGAAAGUAUUAUGUUACGCCGUUCGGAUCUGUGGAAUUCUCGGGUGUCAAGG", "log2 enrichment": -0.496}
{"Strand": "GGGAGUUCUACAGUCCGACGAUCCAAGUCCUGUGCUACACAUCGUAUGUACCGAAUCGGGGUUUGGUUUGGUUUGGGGAAAGUAUUAUGUUACGCCGUUCGGAUCUGCACUUCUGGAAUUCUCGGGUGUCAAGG", "log2 enrichment": 0.0328}
{"Strand": "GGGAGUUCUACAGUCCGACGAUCACCAUUCAGGUGGGCAUCUUUGGGAAGUGGGGCAAGGGGGGGAUAGGGAGGGGGGUAACACUUUGGGAACAGGUGGUCCCAGGUCGUUUCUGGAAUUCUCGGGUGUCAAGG", "log2 enrichment": 0.715}
{"Strand": "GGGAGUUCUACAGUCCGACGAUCUCAAGUCCUGUGCUACACAUCGUAUGUACCGAAUCGGGCCCGGGGCCCGGCCCGGAAAGUAUUAUGUUACGCCGUUCGGAUCUGCACUUCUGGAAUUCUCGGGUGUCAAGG", "log2 enrichment": -1.14}
{"Strand": "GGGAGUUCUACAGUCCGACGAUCUCAAGUCCUGUGCUACACAUCGUAUGUACCGAAUCGGGUUUGGGUGGGUUUGGGAAAGUAUUAUGUUACGCCGUUCGGAUCUGCACUUCCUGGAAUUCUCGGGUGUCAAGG", "log2 enrichment": 1.42}
{"Strand": "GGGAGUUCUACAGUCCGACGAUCUCUGGACAUGCAGGUGGACCAGUCAGUGCCAGAGUAAGUUGUUGUUUUCUUAAAAGAAAAAAAAAAAUGUAAAAUCAUCUAACCCUAACCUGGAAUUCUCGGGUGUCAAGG", "log2 enrichment": 0.255}
{"Strand": "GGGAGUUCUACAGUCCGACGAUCCCUGUGCUACACAUCGUAUGUACCGAAUCGGGGUUUGGGGAAAAAGGGGAAAAAAAGGGGAAAGUAUUAUGUUACGCCGUUCGGAUCUGCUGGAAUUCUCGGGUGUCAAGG", "log2 enrichment": -0.0473}
{"data": "Series 4", "target": "Interferon regulatory factor 5, full length, phosphomimetic (IRF5, Homo sapiens, UniProt Q13568-2, residues 1-514, K96S/S451D/S453D/S456D/S462D)", "method": "protein-binding microarray", "molecule type": "double-stranded DNA, one strand shown", "sample": "in vitro", "concentration": "250 nM", "notes": "60-bp whole probe", "together with": "salmon DNA 0.4 mg/ml", "relative to": "random background probes", "reading": "higher = stronger binding", "constant ends, left off below": "GCCTAGCAC … GTCTTGATTCGCTTGACGCTGCTG"}
{"Strand": "TCACTACTGCATTTTTTACTGTGCTAG", "log fluorescence [z-score]": 0.72}
{"Strand": "GAGGGTTTCGGTCTCGGGACGTGCTAG", "log fluorescence [z-score]": 8.56}
{"Strand": "TTAGGTATCGGTCTCGGATAGTGCTAG", "log fluorescence [z-score]": 6.77}
{"Strand": "TTAGATATCGGGACTGGGTTAGTGCTA", "log fluorescence [z-score]": 0.945}
{"Strand": "GACGGTTTCCTTTACCTGACGTGCTAG", "log fluorescence [z-score]": 0.555}
{"Strand": "TCAGAACTGAGTTTCGATTAGTGCTAG", "log fluorescence [z-score]": 9.61}
{"Strand": "GACGGTATCGATACTGGGGACGTGCTA", "log fluorescence [z-score]": 7.42}
{"Strand": "TTAGTTATCGGGTTTCGGTTAGTGCTA", "log fluorescence [z-score]": 8.95}
{"Strand": "GACGTACTGAGTATCGAGACGTGCTAG", "log fluorescence [z-score]": 1.29}
{"Strand": "GGCGGTTCCCTTTTCCTGACGTGCTAG", "log fluorescence [z-score]": -0.233}
{"Strand": "TACGAACTGAGACTGGAGACGTGCTAG", "log fluorescence [z-score]": -0.422}
{"Strand": "TCATCTCTACATGTGTTACTGTGCTAG", "log fluorescence [z-score]": 0.207}
{"Strand": "TTTAGCAGACTGAGAGGAACGTGCTAG", "log fluorescence [z-score]": -0.277}
{"Strand": "TCAGATATAAATGTAACACTGTGCTAG", "log fluorescence [z-score]": 0.732}
{"Strand": "CAGCATCTGCAACATCTACAAGTGCTA", "log fluorescence [z-score]": -0.162}
{"Strand": "TTAGGTATACTACTGCTTTAGTGCTAG", "log fluorescence [z-score]": -0.176}
{"Strand": "GCCGAACTGGGGACTGGAGACGTGCTA", "log fluorescence [z-score]": -0.631}
{"Strand": "TCATACTTCTCTTTTGGACTGTGCTAG", "log fluorescence [z-score]": 0.722}
{"Strand": "GACGGTACCGGTCTCGGGACGTGCTAG", "log fluorescence [z-score]": 0.00039}
{"Strand": "TTAGGTATCGGCCTCGGTTAGTGCTAG", "log fluorescence [z-score]": 2.66}
{"note": "A few entries again (series 2):"}
{"Strand": "TCCGGAGA", "E-score": 0.126}
{"Strand": "CGCCGATA", "E-score": 0.379}
{"Strand": "TAGGCTGA", "E-score": -0.095}
{"Strand": "AACTTAGC", "E-score": -0.104}
{"Strand": "GGTGTACA", "E-score": 0.0042}
{"Strand": "AGCTACAA", "E-score": -0.113}
{"Strand": "CGCACACA", "E-score": 0.183}
{"Strand": "ACAGAGGA", "E-score": -0.198}
{"Strand": "CATGGAAC", "E-score": -0.122}
